Assay results collected from several papers.
± gives the spread as reported.

COCCOc1cnc2ccn([C@H](C)c3nnc4c(F)cc(-c5cnn(C)c5)cn34)c(=O)c2c1  half-life (human patients, dose escalation, plasma; oral, 300 mg once daily, day 1): 7 h
Cc1nc(-c2ccc(OCC(C)C)c(C#N)c2)sc1C(=O)O  half-life (human; oral, 40 mg once daily, with: verinurad 0 mg): 6.89 h
Cc1ccc(C(=O)N(CCCN)C(c2nc3snc(C)c3c(=O)n2Cc2ccccc2)C(C)C)cc1 (centres unmarked)  half-life (human, AML patients; intravenous): ~17 h
COc1ccc([C@@H](O)c2cc(-c3ncnc4cc(N5CCOCC5)ccc34)c(F)cc2Cl)nn1  half-life (human; oral, 250 mg once daily, single dose): 7.79 h
C[C@@H](Oc1ccc(S(C)(=O)=O)cc1C(=O)N1C[C@@H]2C[C@]2(c2cc(C(F)(F)F)on2)C1)C(F)(F)F  half-life (LC-MS/MS; young human subjects, plasma; oral, 10 mg once daily, steady state, multiple doses): 45.2 h
CC(C)n1nc(-c2ccc3oc(N)nc3c2)c2c(N)ncnc21  half-life (human patients, plasma; oral, 4 mg once daily, cycle 1 day 15, dose escalation): 5.2 h
CCCn1cc(C)c2c(=O)[nH]c(-c3cc(S(=O)(=O)N4CCN(CC)CC4)ccc3OCC)nc21  half-life (LC-MS/MS; human, plasma; 100 mg, with: alcoholic beverage 0.5 g/kg): 4.62 ± 1.1 h
CCCCCCCOc1ccc(CCC(N)(CO)CO)cc1C(F)(F)F.Cl  half-life (healthy human males, plasma; oral, 0.75 mg, day 21): 423 h
Cc1noc(C)c1-c1cc(C(O)(c2ccccn2)c2ccccn2)c2nc(C3CC3)[nH]c2c1  half-life (human patients, plasma; oral, 4 mg, cycle 1 day 8, monotherapy): 16.1 h
C=CC(=O)N(C)CCOc1c(N)ncnc1-c1cc(F)cc(NC(=O)c2ccc(C3CC3)cc2F)c1C  half-life (human, whole blood; oral, 100 mg, single ascending dose, median): 0.91 h
C#C[C@]1(CO)O[C@@H](n2cnc3c(N)nc(F)nc32)C[C@@H]1O  half-life (human, plasma; oral, 400 mg, single dose, geometric mean): 48.5 h
CC#CC(=O)N1CC[C@@H](n2c(=O)n(-c3ccc(Oc4ccccc4)cc3)c3c(N)ncnc32)C1  half-life (human, fasting, plasma; oral, 320 mg once daily, cycle 1 day 28): ~4.7 h
CO[C@H]1C[C@@H]2CC[C@@H](C)[C@@](O)(O2)C(=O)C(=O)N2CCCC[C@H]2C(=O)O[C@H]([C@H](C)C[C@@H]2CC[C@@H](OC(=O)NCCOCCOCCOCCOCCOCCOCCOCCOCCC(=O)N3CCc4cc(Cn5nc(-c6ccc7oc(N)nc7c6)c6c(N)ncnc65)ccc4C3)[C@H](OC)C2)C[C@@H](O)[C@H](C)/C=C(\C)[C@@H](O)[C@@H](OC)C(=O)[C@H](C)C[C@H](C)/C=C/C=C/C=C/1C  half-life (human, plasma; intravenous, 8 mg, cycle 1 day 15, arithmetic mean): 6.7 h
CC1(COc2ccc3c(c2)ncn3-c2ccc3cccc(N4CCC(N)CC4)c3n2)COC1  half-life (human patients, recurrent/progressive HGG or DIPG, serum; oral, 170 mg/m^2, day 1, median): 7.8 h
CN(C)N=Nc1[nH]cnc1C(N)=O  half-life (human patients, plasma; intravenous, 1000 mg/m^2, cycle 2, without co-drug): ~2.5 h
CC(C)(Sc1ccncc1-c1ccc(C#N)c2ccccc12)C(=O)O  half-life (human; oral, 15 mg once daily, with: febuxostat 0 mg): 19.6 h
COC(=O)N[C@@H](C)CNc1nccc(-c2cn(C(C)C)nc2-c2cc(Cl)cc(NS(C)(=O)=O)c2F)n1  half-life (human patients, plasma; oral, 450 mg twice daily, day 1, single dose, geometric mean, with: binimetinib 45 mg once daily): 3.98 h
N#Cc1cc(NC(=O)[C@H]2c3ccccc3C(=O)N(CC(F)(F)F)[C@@H]2c2cccnc2)ccc1F  half-life (human, plasma; oral, 600 mg, median): 19.8 h
C[C@H](Oc1ccc(Br)cc1-c1ccon1)C(=O)O  half-life (LC-MS/MS, non-compartmental; human, plasma; 600 mg once daily, day 1, multiple ascending dose, mean): 4.67 h
O=C(O)CCC(=O)O.[2H]C([2H])([2H])Oc1cc(C)c2[nH]ccc2c1CN1CC[C@@H](C2CC2)C[C@H]1c1ccc(C(=O)O)cc1  half-life (human, plasma; 300 mg once daily, day 10, multiple ascending dose, mean): 33.2 h
CC[C@H](C)CCCCC(=O)N[C@@H](CCN)C(=O)N[C@H](C(=O)N[C@@H](CCN)C(=O)N[C@H]1CCNC(=O)[C@H]([C@@H](C)O)NC(=O)[C@H](CCN)NC(=O)[C@H](CCN)NC(=O)[C@H](CC(C)C)NC(=O)[C@@H](Cc2ccccc2)NC(=O)[C@H](CCN)NC1=O)[C@@H](C)O  half-life (human, mild renal insufficiency, plasma; intravenous, 0.75 mg/kg, single 1-h infusion,, arithmetic mean): 7.39 h
COc1ncc(-c2nc3c(n2C(C)C)[C@H](c2ccc(Cl)cc2)N(c2cc(Cl)cn(C)c2=O)C3=O)c(OC)n1  half-life (human, plasma; oral, 150 mg, C2D1, high-dose, median): 13.4 h
C=CC(=O)NC1CCN(c2ncc3ncnc(Nc4ccc(Oc5ccc6c(c5)ncn6C)c(C)c4)c3n2)CC1  half-life (human, male, plasma; oral, 30 mg single dose, fed, geometric mean): 34.9 h
COC(=O)N[C@H](C(=O)N1CCC[C@H]1c1nc2cc([C@H]3CC[C@H](c4cc5nc([C@@H]6CCCN6C(=O)[C@@H](NC(=O)OC)[C@@H](C)OC)[nH]c5cc4F)N3c3cc(F)c(N4CCC(c5ccc(F)cc5)CC4)c(F)c3)c(F)cc2[nH]1)[C@@H](C)OC  half-life (healthy human subjects, plasma; oral, single dose alone): 11.3 h
CC(C)n1c(Nc2cccnc2)nc2cnc(Nc3ccc(N4CCN(C)CC4)cc3)nc21  half-life (human, male, plasma; oral, 150 mg, day 15, with: rifampin 600 mg daily): 31.4 h
Cc1cccc(F)c1N1CCC(N2Cc3cn(CC(C)(F)F)nc3N(Cc3ccccc3C(F)(F)F)C2=O)CC1  half-life (human healthy subjects, plasma; oral, 100 mg, single dose, fed, geometric mean): 40.8 h
CCN1CCN(Cc2ccc(Nc3ncc(F)c(-c4cc(F)c5nc6n(c5c4)[C@H](C)CCC6)n3)nc2)CC1  half-life (human, plasma; 300 mg single dose, mean): 51.1 h
Cn1cncc1[C@@](N)(c1ccc(Cl)cc1)c1ccc2c(c1)c(-c1cccc(Cl)c1)cc(=O)n2C  half-life (non-compartmental analysis; human, plasma; oral, 200 mg/m^2, median, first cycle dose): 5 h
CN[C@@H](C)C(=O)N[C@H]1CN(S(=O)(=O)c2cccc(S(=O)(=O)N3CC[C@H]4CC[C@@H](C(=O)NC(c5ccccc5)c5ccccc5)N4C(=O)[C@@H](NC(=O)[C@H](C)NC)C3)c2)CC[C@H]2CC[C@@H](C(=O)NC(c3ccccc3)c3ccccc3)N2C1=O  half-life (LC-MS/MS, noncompartmental; human, plasma; 45 mg, cycle 1 day 1): 3.38 ± 1.84 h
Cc1cc(C)c(CNC(=O)c2cc(Cl)c3c(c2C)O[C@@](C)([C@H]2CC[C@H](N(C)C)CC2)O3)c(=O)[nH]1  half-life (healthy male human, plasma; oral, 25 mg, alone, before itraconazole): 17.5 h
Cc1ccc([C@@H]2O[C@H](CO)[C@@H](O)[C@H](O)[C@H]2O)cc1Cc1ccc(-c2ccc(F)cc2)s1  half-life (human, maintenance hemodialysis patients; oral, 100 mg once daily, steady state, median): 10.8 h
CC(C)NC(=O)COc1cccc(-c2nc(Nc3ccc4[nH]ncc4c3)c3ccccc3n2)c1  half-life (human, male, fed, plasma; oral, 200 mg, day 3, geometric mean): ~6 h
CC(=O)c1cc(C(=O)N[C@@H](C)Cn2ccc(-c3ccc(C#N)c(Cl)c3)n2)[nH]n1  half-life (human, fasted, plasma; oral, 300 mg darolutamide tablet, geometric mean): 16.9 h
CC(=O)O[C@H]1C(=O)[C@@]2(C)[C@H]([C@H](OC(=O)c3ccccc3)[C@]3(O)C[C@H](OC(=O)[C@H](O)[C@@H](NC(=O)c4ccccc4)c4ccccc4)C(C)=C1C3(C)C)[C@]1(OC(C)=O)CO[C@@H]1C[C@@H]2O  half-life (noncompartmental analysis; human cancer patients, plasma; intravenous infusion, 80 mg/m^2, cycle 1 day 1, with: daily oral co-medication): 7.81 h
C[C@H]1[C@H](OC(=O)CCC(=O)O)O[C@@H]2O[C@@]3(C)CC[C@H]4[C@H](C)CC[C@@H]1[C@@]24OO3  half-life (human, both sexes, plasma; oral, dose not given, non-fixed combination): 0.59 h
Cc1nc(Nc2ncc(C(=O)Nc3c(C)cccc3Cl)s2)cc(N2CCN(CCO)CC2)n1  half-life (human patients, plasma; oral, 65 mg/m^2, day 8): 5.2 ± 1.3 h
CC(=O)N1CCC(Nc2cc(C(=O)NC[C@H](O)CN3CCc4ccccc4C3)ncn2)CC1  half-life (human, plasma; oral, 300 mg, week 3 day 1, geometric mean): 6.84 h
NC[C@@]1(CC(=O)O)[C@@H]2CC[C@H]3C[C@@H]2[C@@H]1C3  half-life (human, normal renal function, plasma; oral, 20 mg single dose, geometric mean): 3.52 h
Cc1cc(OCCOCCC(F)(F)P(=O)(O)O)ccc1CCc1cnc2c(N)nc3cc(CCC(=O)O)ccc3c2c1  half-life (human, serum; intratumoral, 200 µg every 2 weeks, cycle 2 day 15): 9.32 h
C#C[C@]1(COP(=O)(O)O)O[C@@H](n2cnc3c(N)nc(F)nc32)C[C@@H]1O  half-life (item: islatravir triphosphate; human, PBMC; oral, 200 mg single dose): 112 h
CO[C@@H]1[C@H](OC(=O)N2CC(CCN3CCOCC3)C2)CC[C@]2(CO2)[C@H]1[C@@]1(C)O[C@@H]1CC=C(C)C  half-life (humans, plasma; subcutaneous, 0.2 mg twice weekly, fifth dose): 0.37 ± 0.28 h
O=C(COc1ccc(Cl)cc1)NC12CC(c3nnc([C@H]4C[C@@H](OC(F)(F)F)C4)o3)(C1)C2  half-life (healthy human volunteers fasted, plasma; oral, 15 mg single dose, geometric mean): 31.7 h
CCN1CCN(Cc2ccc(Nc3ncc(F)c(-c4cc(F)c5nc(C)n(C(C)C)c5c4)n3)nc2)CC1  half-life (healthy human, fasted, plasma; oral, 200 mg, capsule): 21.6 h
C[C@@H](N)c1cc(Cl)ccc1Cn1c(=S)[nH]c(=O)c2[nH]ccc21  half-life (human, both sexes, severe renal impairment; oral, 2.5 mg single dose, geometric mean): ~131 h
N#Cc1cccc(-c2ccc3ncc(-c4cc(F)cc(F)c4)c(N4CCC(N)CC4)c3c2)c1O  half-life (human male, plasma; oral, 20 mg, single dose, geometric mean): 26 h
COc1cc([C@H]2Oc3ccc([C@H]4Oc5cc(O)cc(O)c5C(=O)[C@@H]4O)cc3O[C@@H]2CO)ccc1O  half-life (OATP1B1/1B3 humanized mice, plasma; oral gavage, 500 mg/kg silymarin): 0.34 h
NCCCS(=O)(=O)O  half-life (human, plasma; oral, 340 mg once daily, day 14, capsule, fasted, dosed days 8-14): 38.7 h

For quick reference, copied from above:
C=CC(=O)NC1CCN(c2ncc3ncnc(Nc4ccc(Oc5ccc6c(c5)ncn6C)c(C)c4)c3n2)CC1  half-life (human, male, plasma; oral, 30 mg single dose, fed, geometric mean): 34.9 h
COC(=O)N[C@H](C(=O)N1CCC[C@H]1c1nc2cc([C@H]3CC[C@H](c4cc5nc([C@@H]6CCCN6C(=O)[C@@H](NC(=O)OC)[C@@H](C)OC)[nH]c5cc4F)N3c3cc(F)c(N4CCC(c5ccc(F)cc5)CC4)c(F)c3)c(F)cc2[nH]1)[C@@H](C)OC  half-life (healthy human subjects, plasma; oral, single dose alone): 11.3 h
CC(C)n1c(Nc2cccnc2)nc2cnc(Nc3ccc(N4CCN(C)CC4)cc3)nc21  half-life (human, male, plasma; oral, 150 mg, day 15, with: rifampin 600 mg daily): 31.4 h
Cc1cccc(F)c1N1CCC(N2Cc3cn(CC(C)(F)F)nc3N(Cc3ccccc3C(F)(F)F)C2=O)CC1  half-life (human healthy subjects, plasma; oral, 100 mg, single dose, fed, geometric mean): 40.8 h
